Experimental data pooled from the literature.
± gives the spread as reported.
Organism: Acinetobacter baumannii

The MIC of `CCCCCCCCCCCCCC(=O)N[C@H](CCN)C(=O)N[C@@H]1C(=O)N[C@@H](CCN)C(=O)N[C@@H](CC(C)C)C(=O)N[C@@H](CCN)C(=O)N[C@H](Cc2ccccc2)C(=O)N[C@@H](CC(C)C)C(=O)N[C@@H](CCN)C(=O)N[C@H](Cc2ccc(O)cc2)C(=O)N[C@@H](C(C)C)C(=O)N[C@@H](CC(=O)O)C(=O)O[C@@H]1C` is reported as 4 µg/mL (broth microdilution; BNCC 194496).
`CC(C)C[C@H](NC(=O)[C@H](Cc1ccc(O)cc1)NC(=O)[C@@H]1CCCN1C(=O)[C@H](CCCNC(=N)N)NC(=O)[C@@H]1CCCN1C(=O)[C@H](CCCCN)NC(=O)[C@H](CC(=O)O)NC(=O)[C@@H]1CCCN1C(=O)[C@H](CCCNC(=N)N)NC(=O)C1(N)CCCCC1)C(=O)N1CCC[C@H]1C(=O)N[C@@H](CCCNC(=N)N)C(=O)N1CCC[C@H]1C(=O)N[C@@H](CCCNC(=N)N)C(=O)N1CCC[C@H]1C(=O)N1CCC[C@H]1C(=O)N[C@@H](CCCNC(=N)N)C(=O)N1CCC[C@H]1C(=O)N[C@H](C(=O)N[C@@H](CCCNC(=N)N)C(=O)N[C@@H](CSCc1ccccc1CSC[C@H](NC(=O)[C@H](CCCNC(=N)N)NC(=O)[C@@H](NC(=O)[C@@H]1CCCN1C(=O)[C@H](CCCNC(=N)N)NC(=O)[C@@H]1CCCN1C(=O)[C@@H]1CCCN1C(=O)[C@H](CCCNC(=N)N)NC(=O)[C@@H]1CCCN1C(=O)[C@H](CCCNC(=N)N)NC(=O)[C@@H]1CCCN1C(=O)[C@H](CC(C)C)NC(=O)[C@H](Cc1ccc(O)cc1)NC(=O)[C@@H]1CCCN1C(=O)[C@H](CCCNC(=N)N)NC(=O)[C@@H]1CCCN1C(=O)[C@H](CCCCN)NC(=O)[C@H](CC(=O)O)NC(=O)[C@@H]1CCCN1C(=O)[C@H](CCCNC(=N)N)NC(=O)C1(N)CCCCC1)C(C)C)C(=O)NN)C(=O)NN)C(C)C` gave an MIC of 16.2 ± 2.8 µg/mL (bacterial growth; ATCC 19606, 100% Mueller-Hinton broth; 90 min, 37 °C, strain ATCC 19606).
With `CC(C)[C@@H]1NC(=O)[C@@H]2CCCN2C(=O)[C@@H](C)NC(=O)[C@H](CO)NC(=O)[C@H](C)NC(=O)[C@H](C(C)(C)C)NC(=O)[C@H](CCO)NC(=O)[C@H](Cc2c[nH]c3ccccc23)NC(=O)[C@H](CCO)NC(=O)[C@@H](CCN)NC(=O)[C@H](CCC(N)=O)NC(=O)[C@H](CCN)NC(=O)[C@H](Cc2ccc(O)cc2)NC(=O)[C@H]([C@@H](C)O)NC1=O` the MIC was over 64 µg/mL (broth microdilution; NDM-2, NRZ 00687, CAMHB with 0.002% polysorbate-80; 16 h, 37 °C).
`C[C@@H](N)[C@H](O)CCCCCCCC(=O)CCCCCCCCCCCCCC[C@@H](O[C@@H]1O[C@H](CO)[C@H](O)[C@H](O)[C@H]1O)[C@H](N)CO` has an MIC of 14.7 µM (microbial growth, resazurin; ATCC19606; 6 h).
The MIC of `CC[C@H](C)[C@H](NC(=O)[C@H](CCCN)NC(=O)[C@H](CC(N)=O)NC(=O)[C@H](Cc1c[nH]c2ccccc12)NC(=O)[C@H](Cc1ccccc1)NC(=O)[C@H](CCCN)NC(=O)[C@H](CCCNC(=N)N)NC(=O)[C@H](CC(C)C)NC(=O)[C@H](Cc1c[nH]c2ccccc12)NC(=O)[C@H](CCCN)NC(=O)[C@H](CCCNC(=N)N)NC(=O)[C@H](CC(C)C)NC(=O)CNC(C)=O)C(=O)N[C@@H](CCCN)C(=O)N[C@@H](CCCNC(=N)N)C(N)=O` is reported as 3.12 µM (bacterial growth, broth microdilution; multidrug-resistant).
`CC[C@H](C)[C@H](NC(=O)[C@@H](CCCNC(=N)N)NC(=O)[C@H](CCCNC(=N)N)NC(=O)[C@@H]1CCCN1C(=O)[C@H](Cc1c[nH]c2ccccc12)NC(=O)[C@H](CCCNC(=N)N)NC(=O)[C@@H]1CCCN1C(=O)[C@H](CCCNC(=N)N)NC(=O)[C@@H]1CCCN1C(=O)[C@H](CC(C)C)NC(=O)[C@H](Cc1ccc(O)cc1)NC(=O)[C@@H]1CCCN1C(=O)[C@@H]1CCCN1C(=O)[C@H](CCCCN)NC(=O)[C@H](CC(=O)O)NC(=O)[C@@H](N)C(C)C)C(=O)N[C@@H](Cc1ccc(O)cc1)C(=O)N[C@@H](CC(N)=O)C(=O)N[C@H](CCCNC(=N)N)C(N)=O` has an MIC of 16 µg/mL (broth microdilution; DSM 30008; 18 h).
For `CC[C@H](C)[C@H](NC(=O)[C@H](CCCN)NC(=O)[C@H](CC(N)=O)NC(=O)[C@H](Cc1c[nH]c2ccccc12)NC(=O)[C@H](Cc1ccccc1)NC(=O)[C@H](CCCN)NC(=O)[C@H](CCCCNC(=N)N)NC(=O)[C@H](CC(C)C)NC(=O)[C@H](Cc1c[nH]c2ccccc12)NC(=O)[C@H](CCCN)NC(=O)[C@H](CCCCNC(=N)N)NC(=O)[C@H](CC(C)C)NC(=O)CNC(C)=O)C(=O)N[C@@H](CCCN)C(=O)N[C@@H](CCCCNC(=N)N)C(N)=O`, the MIC was 3.12 µM (bacterial growth, broth microdilution; multidrug-resistant).
With `CC(C)(C)c1ccc(COc2cc3c(=O)c(C(=O)NCCNCCO)cn(Cc4ccccc4)c3cc2Cl)cc1` the MIC was under 0.25 µg/mL (ATCC 19606; ≥80% growth inhibition).
The MIC of `CC[C@H](C)[C@@H]1NC(=O)[C@@H](CC(C)C)NC(=O)[C@H](CCN)NC(=O)[C@@H](NC(=O)[C@@H](CO)NC(=O)[C@@H](NC(=O)[C@H](CCN)NC(=O)c2ccc(-c3ccccc3)cc2)[C@@H](C)O)CCNC(=O)[C@H](CC(C)C)NC(=O)[C@H](CCN)NC(=O)[C@H](CCN)NC1=O` is reported as 1 µg/mL (0301, mcr-1).
